Published values gathered from unrelated publications.
Numbered parts are unrelated; each lists some results of a single study. Positions count from the first letter of the parent shown.

Sample 1 — technique: DHFR PCA, deep sequencing; matrix: yeast; together with: (+)-ABA 0.032 µM; reference: wild-type fitted maximum; direction: higher = stronger binding
Target: ABI1, truncated, D143A, DHFR fusion (Arabidopsis thaliana)
Notes: methotrexate growth selection, single substitutions
Starting sequence: PYL1, truncated, DHFR fusion (Arabidopsis thaliana); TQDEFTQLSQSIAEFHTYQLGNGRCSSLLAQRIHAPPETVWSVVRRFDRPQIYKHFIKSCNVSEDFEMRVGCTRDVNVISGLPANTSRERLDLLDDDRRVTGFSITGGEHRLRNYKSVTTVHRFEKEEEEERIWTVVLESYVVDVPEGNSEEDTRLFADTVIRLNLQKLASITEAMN; partner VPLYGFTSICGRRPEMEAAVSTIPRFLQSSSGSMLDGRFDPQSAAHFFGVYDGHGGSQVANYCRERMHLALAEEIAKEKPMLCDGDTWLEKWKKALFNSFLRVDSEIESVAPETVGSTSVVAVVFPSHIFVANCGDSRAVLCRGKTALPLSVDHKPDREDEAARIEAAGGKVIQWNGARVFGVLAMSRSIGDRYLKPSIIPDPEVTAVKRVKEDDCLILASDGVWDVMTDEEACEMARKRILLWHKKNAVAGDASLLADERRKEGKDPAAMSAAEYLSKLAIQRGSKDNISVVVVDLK
Change	relative binding score
R123Q	69.9%
G107R	5.93%
N177C	42.6%
G71V	0.0278%
R132T	42.7%
C60S	-0.00322%
E130Y	17.3%
E89F	3.02%
E125V	38.8%
C72P	0.165%
S11L	4.48%
Y53A	-0.0871%
T119A	0.309%
V121S	-1.12%
S11D	40%
R32P	6.05%
R99N	4.99%
S171K	43.4%
P36E	9.3%
C25W	0.19%

Sample 2 — technique: RNA Bind-n-Seq; form: RNA; matrix: in vitro; concentration: 365 nM; reference: no-protein control; direction: higher = stronger binding
Target: RNA binding protein fox-1 homolog 2, RRM domain, GST-SBP tag (RBFOX2, Homo sapiens, UniProt O43251-10, residues 100-194)
Notes: natural RNA segment, single round, ends assumed
Target sequence (chain): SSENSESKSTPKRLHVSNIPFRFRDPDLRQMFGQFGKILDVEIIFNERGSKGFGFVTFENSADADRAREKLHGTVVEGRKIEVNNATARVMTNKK
Sequence	RBNS enrichment (R)
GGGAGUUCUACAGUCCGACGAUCUGAGCUUCAGGGCUGCGUGGAAAGAGUUUUUACUCUCUUUUUCUAGCCUGUAUACCAGGCUUUUCCCCACAUUGUCAGGUAGAGCACCAGCUUCCCUGACCGCUGCUGCUUGGAAUUCUCGGGUGCCAA	0.265
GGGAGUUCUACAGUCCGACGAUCCCCACUGCAGGCCCCGCUUGUCCAGCGCCUAGUGGGGUCUCCCUCUCCUGCCUACUCACGAUAAAUAAUCGGCCCACAGCUCCCACCCCACCCCCUUCAGUGCCCACCAAUGGAAUUCUCGGGUGCCAA	1.62
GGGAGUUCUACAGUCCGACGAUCGACCGCCCUCAGCCCGUUGGAAGCUUGGUUUAGAGGACUUGUUGGGCUCAUUUUGGUUUUAUUGAAAUGCCAUCUAAAUAUGUUAGCUGUAGAUAGGAGGUGCUUCUGGUUGGAAUUCUCGGGUGCCAA	2.61
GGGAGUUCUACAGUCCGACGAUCCCAGCCUUCCCACAUCUUCCCAGGCCAAGAUGCAGGGGGCAGGCUGAAGAGAAAUUUGUGUGUCCUUGUUUGUUGCCUGAUCUUAGUUUCAUGGAAGAAAAUGGAAUCUAUGGAAUUCUCGGGUGCCAA	1.12
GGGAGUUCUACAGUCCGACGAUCGAGGUGCACUCAAGUGUGGGACUGAGCUUGGCUUCUGGCUCAGUUUCCAUUUUUUGGUCUGAAACUUCAUGUAUUUGAAUAUAGUUAAAUUUUAUUAUUUUUUUCUUACAUGGAAUUCUCGGGUGCCAA	0.429
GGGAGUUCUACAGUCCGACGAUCCCUUUCAGCAUCCUAGGAAUUUUUAUACUAAAAGCAAAAUGUUUUUUCCAGUUAGUCUUCUUCAAGGAAUUACUAUUGUUCCUUUUGUCACAGGUAAAAUCAGUGUUGGGUGGAAUUCUCGGGUGCCAA	0.496
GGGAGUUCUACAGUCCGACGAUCCCUGCCCAGACUUUCUAUCCAGCCUCACUGAGCUGCCCACUACUGGAAGGGAACUGGGCCUCGGUGGCCGGGGCCGCGAGCUGUGACCACAGCACCCUCAAGCAUACGGCUGGAAUUCUCGGGUGCCAA	0.642
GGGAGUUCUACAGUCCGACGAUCAUAGAAACUUAGGCACUUUGCUGACUCCUUUCUGAACUAUCAGACUGGCCAUUUGAAAGCCUAGUAUUUAUUUGUAUGUCAAUAUUUGCCCAGUUGAUGUCCUAUGUAGAUGGAAUUCUCGGGUGCCAA	0.433
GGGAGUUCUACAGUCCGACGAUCAUUUCAGUUGCUAUAUCAUAAGCAUUUUUAAAGUUUCUUUUCUAAUUUUACAUUGUAUUAGAUUUUCUGAUUCUUUUGUAAAUACAGAACUUAAAUAGAAGGCAACAGGAUGGAAUUCUCGGGUGCCAA	0.869
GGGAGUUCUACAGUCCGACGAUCCUCUAGAUAAAAUCUUAUUUCUUCAUACAUUGGACCACAAGGCAUAAAGAAGGUAGCUCAGCGCCACUGAGAUUGUGUUCUGCAUAAUAUUUGGAAGGCUUCCAUUUCCAUGGAAUUCUCGGGUGCCAA	0.253
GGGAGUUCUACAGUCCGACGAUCGAAUGACAGUCCGUCAAAACAGAUUGUUUGCAAAGGGGAGGCAUCAGUGUCCUUGGCAGGCUGAUUUCUAGGUAGGAAAUGUGGUAGCCUCACUUUUAAUGAACAAAUGGUGGAAUUCUCGGGUGCCAA	1.01
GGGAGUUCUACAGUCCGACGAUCCUUCCCCUCUCGGGCUUCAUUCCACCCAGCUGUCAGCUGACCUGCGGGUGAAGGGCUCAGCCUUCUCACCCAUCCCUCAUUGCUGGAACCAAGUGCCAAGACUACCACAAUGGAAUUCUCGGGUGCCAA	0.286

Sample 3 — technique: RNAcompete; form: RNA; matrix: in vitro; concentration: 20 nM; notes: 7-mer, probes averaged, single round; reference: mean of 7-mers; direction: higher = stronger binding
Target: PABPC1L2, full length, GST fusion (mouse, UniProt A0ABA7IW68)
Construct (chain): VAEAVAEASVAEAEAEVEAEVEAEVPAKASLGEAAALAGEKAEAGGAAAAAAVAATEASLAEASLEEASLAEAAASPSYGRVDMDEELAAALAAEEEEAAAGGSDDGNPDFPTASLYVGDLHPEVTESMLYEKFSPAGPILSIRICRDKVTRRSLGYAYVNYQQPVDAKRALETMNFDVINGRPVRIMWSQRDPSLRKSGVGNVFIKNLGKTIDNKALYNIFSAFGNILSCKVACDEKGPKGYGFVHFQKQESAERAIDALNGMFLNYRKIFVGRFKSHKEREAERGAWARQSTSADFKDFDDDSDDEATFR
Sequence	7-mer Z-score
UACAGUG	-0.135
CCUUGAU	-0.249
GCUAGCA	-0.0935
AUGUCCC	-0.258
GCAAUCC	-0.141
GCAGUGA	-0.0609
CGCCAUA	-0.19
GAAUUCA	-0.0554
UACAAAG	1.03
CCACGAG	-0.159
ACAAGCG	0.0642
UCGUCUA	-0.461
CUUUUCA	-0.387
UGGGACG	0.332
AUCGCUU	-0.278
GAAGGAU	0.0334
GAUCGCA	-0.269
UACUUGC	-0.229
GCUGUGC	-0.229
UUUGUAC	-0.309
UAUCAGG	-0.0935
UUGAGGA	-0.0863
AGAGGUG	0.202
UCUCUUG	-0.458

Sample 4 — technique: RNA Bind-n-Seq; form: RNA; matrix: in vitro; concentration: 1 µM; notes: whole 134-nt RNA, ends assumed; together with: 150 mM KCl; reference: input library; direction: higher = stronger binding
Target: Ras GTPase-activating protein-binding protein 1, C-terminal RGG region (G3BP1, Homo sapiens, UniProt Q13283)
Sequence of UniProt Q13283 (whole entry, looked up): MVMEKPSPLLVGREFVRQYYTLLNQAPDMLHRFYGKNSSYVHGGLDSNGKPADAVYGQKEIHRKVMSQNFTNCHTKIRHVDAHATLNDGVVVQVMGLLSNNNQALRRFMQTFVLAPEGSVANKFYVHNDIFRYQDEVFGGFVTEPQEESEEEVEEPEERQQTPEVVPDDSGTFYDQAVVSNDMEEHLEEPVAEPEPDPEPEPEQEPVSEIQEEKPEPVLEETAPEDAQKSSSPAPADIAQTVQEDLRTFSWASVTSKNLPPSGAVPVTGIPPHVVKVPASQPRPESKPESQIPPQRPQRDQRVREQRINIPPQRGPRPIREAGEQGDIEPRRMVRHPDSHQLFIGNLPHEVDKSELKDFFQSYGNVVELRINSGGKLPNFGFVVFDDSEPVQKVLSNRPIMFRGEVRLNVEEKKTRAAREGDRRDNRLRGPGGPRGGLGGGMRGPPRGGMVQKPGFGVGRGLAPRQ
Sequence	log2 enrichment
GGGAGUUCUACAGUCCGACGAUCUCUCAGCACCCUCGUGAAACUGGACAAGAAGCCAGUGGAGACCAACGGUCCUGAUGCCAAUCACGAGUACAGUACAAGCAGCCAGCAUAUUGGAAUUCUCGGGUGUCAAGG	-1.02
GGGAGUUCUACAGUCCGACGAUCACCAUACUUGACAACUUCUGAUUGAAUGCCCAUGCCCAAUGCCAACAUCCACGAACGCCAAUGACCAAUGCAGUACAAUGCCAGUGUUUCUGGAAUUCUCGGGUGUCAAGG	-0.691
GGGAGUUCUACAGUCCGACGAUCUCAAGUCCUGUGCUACACAUCGUAUGUACCGAAUCGGGUUUGGGAAAGGGUGGGAAAGUAUUAUGUUACGCCGUUCGGAUCUGCACUUCCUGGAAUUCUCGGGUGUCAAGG	1.92
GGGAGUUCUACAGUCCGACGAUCUGGGAGGUGGAUUUUGUUUAUUUUUUUAGCACAUUUCCAGGGGUGGGAAUUUUUUUUUAAUAUGUGUCAUGAAUAAAGUUGUUUUUGAAAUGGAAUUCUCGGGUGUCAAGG	3.42
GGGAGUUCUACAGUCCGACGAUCUGGCAGGUGGAUUUUGUUUAUUUUUUUAGCUCAUUUCCAGGGGUGGGAAUUUUUUUUUAAUAUGUGUCAUGAAUAAAGUUGUUUUUGAAAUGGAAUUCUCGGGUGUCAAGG	3.79
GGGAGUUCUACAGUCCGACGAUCCCUGUGCUACACAUCGUAUGUACCGAAUCAAAGUGUGUGUGUGUAAAGUGUGUGUGUAAAAAAGUAUUAUGUUACGCCGUUCGGAUCUGCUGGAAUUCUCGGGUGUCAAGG	-0.349
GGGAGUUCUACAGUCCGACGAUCCCUGUGCUACACAUCGUAUGUACCGAAUCGGGGUUUUUGGGGUUUUUUUGGGGAAAGGGGAAAGUAUUAUGUUACGCCGUUCGGAUCUGCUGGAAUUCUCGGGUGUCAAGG	0.779
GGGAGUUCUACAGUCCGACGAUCCUGUGCUACACAUCGUAUGUACCGAAUCGGGGCCCCCCGGGGCCCCCCGGGGCCCCCCGGGGAAAGUAUUAUGUUACGCCGUUCGGAUCUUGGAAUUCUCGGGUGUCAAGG	-2.62
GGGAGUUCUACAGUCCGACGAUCAGUCCUGUGCUACACAUCGUAUGUACCGAAUCGGAAAAAGGGGAAAAAGGGAAAAAGGAAAGUAUUAUGUUACGCCGUUCGGAUCUGCACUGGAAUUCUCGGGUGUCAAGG	-1.36
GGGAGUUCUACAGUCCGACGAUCCCUCAAGUCCUGUGCUACACAUCGUAUGUACCGAAUCGGAAAGGUUUGGUGGAAAGUAUUAUGUUACGCCGUUCGGAUCUGCACUUCCAGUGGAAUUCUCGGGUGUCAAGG	-1.33
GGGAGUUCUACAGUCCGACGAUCUAACUUUAGAGGAGGAUCUGAUGGAUAGGGCAGUGGACGUGGAUUUGGGGAUGGCUAUAAUGGGUAUGGAGGAGGACCUGGAGGUGGCAAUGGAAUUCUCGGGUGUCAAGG	0.56
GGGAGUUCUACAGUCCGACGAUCUCCUGUGCUACACAUCGUAUGUACCGAAUCGGCCCCCCCGGGCCCCCCCGGCCCCCCCGGAAAGUAUUAUGUUACGCCGUUCGGAUCUGCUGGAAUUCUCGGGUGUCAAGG	-0.661
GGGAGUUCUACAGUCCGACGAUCCCUCAAGUCCUGUGCUACACAUCGUAUGUACCGAAUCGGGAGGGAGGGAGGGAAAGUAUUAUGUUACGCCGUUCGGAUCUGCACUUCCAGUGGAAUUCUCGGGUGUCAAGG	2.67
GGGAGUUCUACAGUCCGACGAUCCAAGUCCUGUGCUACACAUCGUAUGUACCGAAUCGGAAAGGAAAGGUUUUUUUGGAAAGUAUUAUGUUACGCCGUUCGGAUCUGCACUUCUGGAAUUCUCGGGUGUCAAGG	-1.94

Sample 5 — technique: universal PBM; form: double-stranded DNA, one strand shown; matrix: in vitro; concentration: 600 nM; direction: higher = stronger binding
Target: Sal-like protein 4, full length isoform A (SALL4, Homo sapiens, UniProt Q9UJQ4, residues 1-1053)
Sequence of UniProt Q9UJQ4 (whole entry, looked up): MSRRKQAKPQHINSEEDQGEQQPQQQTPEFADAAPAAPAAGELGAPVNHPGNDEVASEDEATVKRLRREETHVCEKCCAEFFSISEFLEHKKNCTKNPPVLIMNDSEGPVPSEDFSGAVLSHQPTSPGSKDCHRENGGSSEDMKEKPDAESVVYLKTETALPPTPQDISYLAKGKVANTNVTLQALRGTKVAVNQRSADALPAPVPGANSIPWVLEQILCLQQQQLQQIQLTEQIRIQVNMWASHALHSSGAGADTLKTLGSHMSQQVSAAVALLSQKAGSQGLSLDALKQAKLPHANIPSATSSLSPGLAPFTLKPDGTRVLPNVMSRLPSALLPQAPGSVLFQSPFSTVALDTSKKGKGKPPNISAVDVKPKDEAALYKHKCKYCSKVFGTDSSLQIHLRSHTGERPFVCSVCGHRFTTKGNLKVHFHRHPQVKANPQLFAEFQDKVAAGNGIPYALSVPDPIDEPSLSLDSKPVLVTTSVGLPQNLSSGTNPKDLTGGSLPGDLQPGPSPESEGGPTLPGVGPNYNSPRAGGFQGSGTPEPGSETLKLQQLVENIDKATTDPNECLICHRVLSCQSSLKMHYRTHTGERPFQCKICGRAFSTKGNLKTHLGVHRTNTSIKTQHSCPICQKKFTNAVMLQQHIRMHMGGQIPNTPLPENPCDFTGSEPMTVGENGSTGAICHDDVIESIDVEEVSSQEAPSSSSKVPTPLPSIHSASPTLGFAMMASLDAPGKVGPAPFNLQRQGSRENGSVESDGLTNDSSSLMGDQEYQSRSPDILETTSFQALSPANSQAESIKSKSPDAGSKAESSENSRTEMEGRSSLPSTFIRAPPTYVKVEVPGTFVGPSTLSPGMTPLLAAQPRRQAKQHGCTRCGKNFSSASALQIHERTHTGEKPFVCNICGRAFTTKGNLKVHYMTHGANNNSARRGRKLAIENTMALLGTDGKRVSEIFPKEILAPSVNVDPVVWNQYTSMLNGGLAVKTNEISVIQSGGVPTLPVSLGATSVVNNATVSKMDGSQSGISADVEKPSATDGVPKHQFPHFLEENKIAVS
Notes: 8-mer, flanks averaged, mean of replicates
Sequence	E-score
AAGAGCCA	-0.0558
CATCTTAG	0.0394
GAGTTGCA	-0.154
GTCGGTAA	-0.0514
GGACACCC	-0.401
AGCGTGCG	-0.177
ACTACCGA	-0.132
CCAAACCC	-0.0496
TATCAACA	0.287
AGCTAAGA	0.0314
CACATTGC	0.0403
ACACGCTC	-0.0607
AGCAGCGG	-0.407
ACCCCCTA	-0.205
CTGGTGCA	-0.221
TCTTTAAA	0.281
CCATATCC	0.0271
GTAAAGAC	0.0018
GGGGGGCA	-0.308
ACATTTCA	0.288
AATTACCA	0.329
ATAAGTGC	0.114
AAAAGACA	0.199
ACAACGGG	-0.0798
GATTGGCC	-0.139

Repeated from above (sample 5):
Sequence	E-score
CATCTTAG	0.0394
GAGTTGCA	-0.154
GTCGGTAA	-0.0514
GGACACCC	-0.401
AGCGTGCG	-0.177
ACTACCGA	-0.132
CCAAACCC	-0.0496
TATCAACA	0.287
AGCTAAGA	0.0314
CACATTGC	0.0403
ACACGCTC	-0.0607
AGCAGCGG	-0.407
ACCCCCTA	-0.205
CTGGTGCA	-0.221
TCTTTAAA	0.281
